Published values collected from several papers.
Each line is one published result; not all experiments were run side by side. Numbers after ± are the reported error.
Rhomboid protease AarA: Rhomboid protease AarA (Providencia stuartii, UniProt P46116)
Sequence of UniProt P46116 (whole entry, looked up): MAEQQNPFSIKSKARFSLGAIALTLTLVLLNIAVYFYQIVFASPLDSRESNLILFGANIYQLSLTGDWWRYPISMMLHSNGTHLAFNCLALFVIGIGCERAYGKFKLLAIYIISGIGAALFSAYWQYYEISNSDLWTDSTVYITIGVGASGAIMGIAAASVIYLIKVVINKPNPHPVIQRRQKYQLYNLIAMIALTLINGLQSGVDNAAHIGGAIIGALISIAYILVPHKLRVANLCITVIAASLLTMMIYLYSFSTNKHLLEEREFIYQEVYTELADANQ
PPARG: Peroxisome proliferator-activated receptor gamma (PPARG, Homo sapiens, UniProt P37231)
Sequence of UniProt P37231 (whole entry, looked up): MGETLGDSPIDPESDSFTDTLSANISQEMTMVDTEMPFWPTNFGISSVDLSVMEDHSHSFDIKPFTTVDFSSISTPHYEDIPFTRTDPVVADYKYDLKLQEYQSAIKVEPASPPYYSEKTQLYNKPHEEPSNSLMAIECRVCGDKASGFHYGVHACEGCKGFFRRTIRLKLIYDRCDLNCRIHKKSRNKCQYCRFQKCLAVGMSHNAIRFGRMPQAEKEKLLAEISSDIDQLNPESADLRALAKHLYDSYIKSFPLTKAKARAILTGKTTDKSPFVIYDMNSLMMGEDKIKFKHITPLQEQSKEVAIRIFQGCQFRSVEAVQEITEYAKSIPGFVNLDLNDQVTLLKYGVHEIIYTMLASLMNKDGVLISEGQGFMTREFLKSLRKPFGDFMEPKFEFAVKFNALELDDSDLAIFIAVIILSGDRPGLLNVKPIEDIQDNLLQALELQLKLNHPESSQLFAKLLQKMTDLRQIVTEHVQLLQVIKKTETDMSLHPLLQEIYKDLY
Sequence of UniProt Q9NQU5 (whole entry, looked up): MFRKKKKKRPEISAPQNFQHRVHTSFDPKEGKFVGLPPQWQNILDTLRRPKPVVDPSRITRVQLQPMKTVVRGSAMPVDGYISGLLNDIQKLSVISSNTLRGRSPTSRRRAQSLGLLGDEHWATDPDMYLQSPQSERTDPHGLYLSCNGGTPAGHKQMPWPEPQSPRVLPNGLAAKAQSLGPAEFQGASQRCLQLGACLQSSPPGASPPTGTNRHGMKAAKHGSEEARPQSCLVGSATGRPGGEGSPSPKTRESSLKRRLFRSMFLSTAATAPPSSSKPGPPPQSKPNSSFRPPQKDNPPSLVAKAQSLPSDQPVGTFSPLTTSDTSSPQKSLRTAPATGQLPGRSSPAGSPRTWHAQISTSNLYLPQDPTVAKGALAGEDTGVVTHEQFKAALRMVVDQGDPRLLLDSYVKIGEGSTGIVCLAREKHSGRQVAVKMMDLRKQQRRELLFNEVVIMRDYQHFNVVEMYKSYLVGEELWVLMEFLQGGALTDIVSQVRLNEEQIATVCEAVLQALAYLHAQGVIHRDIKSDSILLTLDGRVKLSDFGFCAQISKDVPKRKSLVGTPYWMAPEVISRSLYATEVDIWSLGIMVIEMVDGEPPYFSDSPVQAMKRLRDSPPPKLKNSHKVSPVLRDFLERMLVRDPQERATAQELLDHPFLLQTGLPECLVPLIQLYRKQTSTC
Sequence of UniProt P43358 (whole entry, looked up): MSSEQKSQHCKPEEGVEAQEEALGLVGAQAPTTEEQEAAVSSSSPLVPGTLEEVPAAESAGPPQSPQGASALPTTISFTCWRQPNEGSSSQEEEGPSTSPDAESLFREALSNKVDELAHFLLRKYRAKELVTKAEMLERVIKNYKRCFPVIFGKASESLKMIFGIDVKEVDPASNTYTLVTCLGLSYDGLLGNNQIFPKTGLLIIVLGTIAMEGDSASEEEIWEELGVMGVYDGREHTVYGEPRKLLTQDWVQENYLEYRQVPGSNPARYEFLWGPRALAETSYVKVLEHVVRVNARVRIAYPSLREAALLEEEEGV
Sequence of UniProt P28482 (whole entry, looked up): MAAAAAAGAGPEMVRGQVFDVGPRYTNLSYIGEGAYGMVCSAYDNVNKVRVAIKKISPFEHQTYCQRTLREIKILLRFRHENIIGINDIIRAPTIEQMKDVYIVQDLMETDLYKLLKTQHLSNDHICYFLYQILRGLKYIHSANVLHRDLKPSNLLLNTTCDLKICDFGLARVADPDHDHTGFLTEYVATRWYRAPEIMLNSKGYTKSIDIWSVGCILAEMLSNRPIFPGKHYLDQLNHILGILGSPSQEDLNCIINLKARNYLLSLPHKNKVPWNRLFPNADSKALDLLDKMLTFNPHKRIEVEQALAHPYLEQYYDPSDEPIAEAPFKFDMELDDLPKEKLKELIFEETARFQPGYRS
Sequence of UniProt P49840 (whole entry, looked up): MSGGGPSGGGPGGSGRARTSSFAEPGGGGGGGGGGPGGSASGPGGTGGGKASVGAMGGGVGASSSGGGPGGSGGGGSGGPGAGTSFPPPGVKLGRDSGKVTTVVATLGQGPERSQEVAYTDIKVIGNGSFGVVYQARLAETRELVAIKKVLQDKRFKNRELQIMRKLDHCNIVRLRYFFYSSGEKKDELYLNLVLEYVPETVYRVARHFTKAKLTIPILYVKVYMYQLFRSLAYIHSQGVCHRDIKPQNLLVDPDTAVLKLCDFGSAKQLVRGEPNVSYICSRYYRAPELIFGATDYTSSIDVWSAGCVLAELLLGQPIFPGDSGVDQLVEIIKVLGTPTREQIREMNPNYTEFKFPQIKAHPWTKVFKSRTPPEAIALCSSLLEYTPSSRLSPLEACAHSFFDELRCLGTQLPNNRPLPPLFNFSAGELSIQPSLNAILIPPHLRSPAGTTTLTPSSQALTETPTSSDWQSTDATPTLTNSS
Sequence of UniProt Q13547 (whole entry, looked up): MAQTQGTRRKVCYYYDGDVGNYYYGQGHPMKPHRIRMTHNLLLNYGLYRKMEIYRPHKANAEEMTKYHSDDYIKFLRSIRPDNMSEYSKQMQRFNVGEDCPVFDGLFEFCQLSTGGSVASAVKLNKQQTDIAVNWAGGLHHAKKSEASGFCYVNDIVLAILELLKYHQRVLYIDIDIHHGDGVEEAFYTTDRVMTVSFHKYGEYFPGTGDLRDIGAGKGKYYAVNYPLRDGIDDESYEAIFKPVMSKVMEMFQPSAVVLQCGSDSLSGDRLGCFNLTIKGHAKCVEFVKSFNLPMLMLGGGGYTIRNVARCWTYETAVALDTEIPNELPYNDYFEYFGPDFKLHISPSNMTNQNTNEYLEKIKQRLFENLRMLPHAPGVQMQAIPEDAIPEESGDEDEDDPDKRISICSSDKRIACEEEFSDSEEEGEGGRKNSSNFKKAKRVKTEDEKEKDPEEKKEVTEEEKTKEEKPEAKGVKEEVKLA
Sequence of UniProt P51692 (whole entry, looked up): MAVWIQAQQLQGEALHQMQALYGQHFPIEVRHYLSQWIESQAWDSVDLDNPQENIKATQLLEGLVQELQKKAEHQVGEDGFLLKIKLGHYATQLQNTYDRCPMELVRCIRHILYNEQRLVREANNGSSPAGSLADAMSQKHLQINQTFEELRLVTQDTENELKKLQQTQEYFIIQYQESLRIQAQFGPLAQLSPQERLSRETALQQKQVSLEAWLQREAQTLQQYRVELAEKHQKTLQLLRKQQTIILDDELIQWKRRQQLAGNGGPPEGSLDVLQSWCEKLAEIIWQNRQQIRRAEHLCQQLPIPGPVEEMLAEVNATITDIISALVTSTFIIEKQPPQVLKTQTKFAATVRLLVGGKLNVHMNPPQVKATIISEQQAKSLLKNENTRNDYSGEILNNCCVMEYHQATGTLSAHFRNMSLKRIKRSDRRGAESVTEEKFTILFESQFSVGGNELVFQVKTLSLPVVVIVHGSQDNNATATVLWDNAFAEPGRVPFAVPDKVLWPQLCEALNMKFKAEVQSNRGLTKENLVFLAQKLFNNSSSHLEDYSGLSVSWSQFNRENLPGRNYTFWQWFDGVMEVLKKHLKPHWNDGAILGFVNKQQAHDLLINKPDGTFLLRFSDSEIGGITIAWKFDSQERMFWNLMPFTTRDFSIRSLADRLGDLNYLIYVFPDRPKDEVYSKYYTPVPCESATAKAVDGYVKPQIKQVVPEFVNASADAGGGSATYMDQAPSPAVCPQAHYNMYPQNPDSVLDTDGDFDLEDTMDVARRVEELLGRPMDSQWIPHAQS
Sequence of UniProt Q9Z1L0 (whole entry, looked up): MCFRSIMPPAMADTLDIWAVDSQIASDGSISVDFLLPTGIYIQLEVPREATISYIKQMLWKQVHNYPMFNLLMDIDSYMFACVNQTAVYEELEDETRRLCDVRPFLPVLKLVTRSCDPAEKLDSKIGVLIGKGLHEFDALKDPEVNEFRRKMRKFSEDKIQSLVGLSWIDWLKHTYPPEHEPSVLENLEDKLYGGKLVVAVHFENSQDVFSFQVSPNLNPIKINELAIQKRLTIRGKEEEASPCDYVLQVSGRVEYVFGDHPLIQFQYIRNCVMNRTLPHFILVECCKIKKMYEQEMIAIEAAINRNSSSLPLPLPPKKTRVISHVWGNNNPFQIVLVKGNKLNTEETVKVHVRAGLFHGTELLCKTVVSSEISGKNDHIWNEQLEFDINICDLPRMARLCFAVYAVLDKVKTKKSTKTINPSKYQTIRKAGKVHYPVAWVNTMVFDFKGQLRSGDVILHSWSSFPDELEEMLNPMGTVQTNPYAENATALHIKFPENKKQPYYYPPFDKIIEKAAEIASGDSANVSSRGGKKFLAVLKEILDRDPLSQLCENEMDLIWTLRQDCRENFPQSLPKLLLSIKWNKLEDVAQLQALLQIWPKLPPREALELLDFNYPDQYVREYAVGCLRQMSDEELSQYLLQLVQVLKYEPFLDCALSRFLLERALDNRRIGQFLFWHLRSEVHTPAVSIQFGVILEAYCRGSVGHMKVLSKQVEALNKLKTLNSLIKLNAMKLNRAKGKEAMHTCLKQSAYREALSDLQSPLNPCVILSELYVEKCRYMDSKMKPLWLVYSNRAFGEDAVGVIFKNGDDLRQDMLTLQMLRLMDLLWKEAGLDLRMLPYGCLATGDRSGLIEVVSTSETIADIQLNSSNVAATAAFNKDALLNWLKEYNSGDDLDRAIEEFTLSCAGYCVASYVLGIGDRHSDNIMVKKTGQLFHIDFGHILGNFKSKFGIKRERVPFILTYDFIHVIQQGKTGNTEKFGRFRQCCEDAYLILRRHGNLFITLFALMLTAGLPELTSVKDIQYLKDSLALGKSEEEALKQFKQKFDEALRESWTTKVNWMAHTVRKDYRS

With `O=C(COc1ccc2ccccc2c1)NCc1ccc(OP(=O)(O)O)c(OP(=O)(O)O)c1` the IC50 was 630 nM (Signal transducer and activator of transcription 5B, SH2 (STAT5B, Homo sapiens, UniProt P51692); ligand displacement, FP).
For `O=C(Nc1c[nH]nc1C(=O)NC1CCNCC1)c1cc(F)cc(F)c1`, the IC50 was 10 nM (GSK3A (Homo sapiens, UniProt P49840); target engagement in cells, BRET).
The IC50 of `O=C(NCc1cccc(Cl)c1)C(C(F)(F)F)C(F)(F)F` is reported as 5400 nM (Rhomboid protease AarA; enzyme activity, inhibitor, fluorescence).
With `Cc1c(Cc2ccc(OC(C)C(=O)O)cc2)c2ccc(C(=O)NC(C)c3ccc(C(F)(F)F)cc3)cc2n1C` (mixture of isomers) the IC50 was 73 nM (PPARG; ligand displacement, TR-FRET).
`CCN(CC)CC(=O)Nc1cccc(-n2cc(-c3ccc4ccc(-c5cn(-c6cccc(NC(=O)CN(CC)CC)c6)nn5)cc4c3)nn2)c1` gave an IC50 of greater than 10000 nM (MAPK1 (Homo sapiens, UniProt P28482); enzyme activity, inhibitor).
`Cc1nc2cc(C(=O)N[C@@H](C)c3cccc(C(C)(C)C)c3)ccc2n1Cc1cccc(OC(C)(C)C(=O)O)c1` gave an IC50 of 262 nM (PPARG; ligand displacement, TR-FRET).
With `CC(=O)c1cnc(N)nc1N1CC[C@H]1c1nn2ccc(Cl)c2c(=O)n1-c1ccccc1` the IC50 was greater than 1000 nM (Phosphatidylinositol 4,5-bisphosphate 3-kinase catalytic subunit beta isoform (Rattus norvegicus, UniProt Q9Z1L0); binding, KiNativ; intact rat white blood cells).
The IC50 of `CC(C)(C)OC(=O)COc1ccccc1NC(=O)C(C(F)(F)F)C(F)(F)F` is reported as 2800 nM (Rhomboid protease AarA; enzyme activity, inhibitor, fluorescence).
The IC50 of `Cc1c(Cc2cccc(OC(C)C(=O)O)c2Cl)c2ccc(C(=O)NC(C)c3ccc(C(C)(C)C)cc3)cc2n1C` (stereo not shown) is reported as 42800 nM (Peroxisome proliferator-activated receptor gamma, ligand-binding domain (PPARG, Homo sapiens, UniProt P37231); reporter gene, luciferase reporter; HEK293T, Gal4-PPARγ LBD).
`CC[C@H](C)[C@@H]1NC(=O)[C@H](Cc2ccc(O)cc2)NC(=O)CCSCSCCNC(=O)[C@H](Cc2c[nH]cn2)NC(=O)[C@H](Cc2ccc(O)cc2)NC(=O)[C@H](CC(=O)O)NC(=O)[C@H](Cc2ccc(O)cc2)NC(=O)[C@H](CC(C)C)NC(=O)[C@H](CCCNC(=N)N)NC1=O` has an IC50 of 26.2 ± 3.2 nM (Melanoma-associated antigen 4, MAGE homology domain (Homo sapiens, UniProt P43358); binding, inhibitor, TR-FRET displacement; together with: Alexa647-MTP-1).
`Cc1cc(C)nc(NC(=S)N2CCN(c3ccc(C(F)(F)F)cn3)CC2)c1` has an IC50 of greater than 57000 nM (LDHA (Homo sapiens, UniProt P00338); enzyme activity, inhibitor).
The IC50 of `COC(=O)CCCCNC(=O)Cc1ccc(Nc2ncc(F)c(-c3cc(F)c4nc(C)n(C(C)C)c4c3)n2)cc1` is reported as greater than 1000 nM (HDAC1 (Homo sapiens, UniProt Q13547); enzyme activity, inhibitor).
The IC50 of `Cc1c(Cc2cccc(OC(C(=O)O)C(F)(F)F)c2)c2ccc(C(=O)N[C@@H](C)c3cccc(C(C)(C)C)c3)cc2n1C` (stereo partly shown) is reported as 158 nM (PPARG; ligand displacement, TR-FRET).
With `Cc1nn(-c2cccc(N)c2)c(=O)c2cnc(Nc3ccc(N4CCNCC4)cc3)nc12` the IC50 was greater than 10000 nM (PAK6 (Homo sapiens, UniProt Q9NQU5); kinase activity, inhibitor, SelectScreen kinase profiling).
`COc1ccc(CNC(=O)C(C(F)(F)F)C(F)(F)F)cc1` gave an IC50 of 15000 nM (Rhomboid protease AarA; enzyme activity, inhibitor, fluorescence).
For `CC(C)Cn1cc(Cc2cccc(OC(C)(C)C(=O)O)c2)c2ccc(C(=O)N[C@@H](C)c3cc(F)cc(C(C)(C)C)c3)cc21`, the IC50 was 8 nM (PPARG; ligand displacement, TR-FRET).

For quick reference, copied from above:
With `CC(=O)c1cnc(N)nc1N1CC[C@H]1c1nn2ccc(Cl)c2c(=O)n1-c1ccccc1` the IC50 was greater than 1000 nM (Phosphatidylinositol 4,5-bisphosphate 3-kinase catalytic subunit beta isoform (Rattus norvegicus, UniProt Q9Z1L0); binding, KiNativ; intact rat white blood cells).
`COc1ccc(CNC(=O)C(C(F)(F)F)C(F)(F)F)cc1` gave an IC50 of 15000 nM (Rhomboid protease AarA; enzyme activity, inhibitor, fluorescence).
